Published values of several laboratories.
Each line is one published result; not all experiments were run side by side. “And” joins repeats or separate records; there may be more than shown. ± gives the spread as reported. No end group written: not given here.
B1: bicyclic; chain AATCHCRRSCYSTEYSYGTCTVMGINHRFCCL (also: bicyclic or more (positions not given here))
Sequence of UniProt P26368 (whole entry, looked up): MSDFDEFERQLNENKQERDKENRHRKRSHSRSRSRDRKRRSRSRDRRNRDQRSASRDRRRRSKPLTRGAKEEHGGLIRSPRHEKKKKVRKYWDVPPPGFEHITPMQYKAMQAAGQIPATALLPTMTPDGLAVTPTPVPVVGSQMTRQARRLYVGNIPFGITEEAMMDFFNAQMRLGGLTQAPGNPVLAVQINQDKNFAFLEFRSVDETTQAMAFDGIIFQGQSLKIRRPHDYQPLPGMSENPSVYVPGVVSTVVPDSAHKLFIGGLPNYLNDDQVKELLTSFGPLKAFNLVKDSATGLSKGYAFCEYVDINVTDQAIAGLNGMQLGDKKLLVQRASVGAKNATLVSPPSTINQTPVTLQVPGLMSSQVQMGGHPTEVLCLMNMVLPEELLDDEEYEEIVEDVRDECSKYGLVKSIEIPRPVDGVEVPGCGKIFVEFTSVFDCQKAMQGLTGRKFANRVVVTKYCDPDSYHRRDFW
Sequence of UniProt Q00535 (whole entry, looked up): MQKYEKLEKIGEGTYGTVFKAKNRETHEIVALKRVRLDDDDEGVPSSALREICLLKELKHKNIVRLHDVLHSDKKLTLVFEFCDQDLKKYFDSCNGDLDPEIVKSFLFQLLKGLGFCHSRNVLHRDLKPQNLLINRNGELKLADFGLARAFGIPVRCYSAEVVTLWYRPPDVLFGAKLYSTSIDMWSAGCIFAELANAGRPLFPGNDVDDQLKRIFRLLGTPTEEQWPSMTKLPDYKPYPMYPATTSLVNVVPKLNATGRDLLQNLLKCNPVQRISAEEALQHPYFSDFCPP

| Molecule | tested on | assay | system | setting | how to read | measurement | value |
| --- | --- | --- | --- | --- | --- | --- | --- |
| CTOP |  | RP-HPLC | HALO Phenyl-hexyl column | 25 µM, acetic acid/methanol, 10 min gradient |  | retention time | 8.37 min |
| enterolactone sulfate |  |  | human, plasma | dose not given, mean |  | plasma concentration | 501 nM |
| regorafenib N-β-glucuronide |  |  | Oatp1b2 knockout mice | oral, 10 mg/kg regorafenib | reference: wild-type mice | AUC | 5.6 fold |
| B1 |  | sedimentation velocity ultracentrifugation | 10 mM sodium phosphate | 100 µM, pH 7.4, 20 °C |  | molecular mass | 4.63 kDa |
| human CDK3 | CYB5R4 knockout human cells | PP4 interaction, 3xFLAG-PP4C IP-MS |  | concentration not given | reference: CYB5R4 KO over parental | log2 fold change | -0.76 |
| FNA / CGLSGLGVA-NH2 ([18F]FNA-labelled, C-amide) |  | ex vivo gamma counting | peptide, glioblastoma mouse model, heart | 60 min post injection, added: 500-fold excess CooP blocking |  | tissue uptake | 0.32 %ID/g |
| Cy5.5 |  | IVIS fluorescence, two-compartment model | BALB/c mouse, tumour-free, blood |  |  | t1/2 alpha | 27 min |
| [177Lu]Lu-DOTA-TATE |  |  | solution | up to 24 h |  | remaining compound | > 90% |
| Polymyxin B |  | LC-MS | Sprague-Dawley rat, right hippocampus homogenate | intracerebroventricular, 0.75 mg/kg, 1 h |  | brain concentration | 3230 ng/mL and 3470 ng/mL and 290 ng/mL and 4170 ng/mL and 1750 ng/mL and 2550 ng/mL and 4440 ng/mL and 370 ng/mL |
| human DDX6 | PP6C (human) | co-immunoprecipitation, IP-MS | CYB5R4 knockout cells | concentration not given | reference: CYB5R4 knockout over parental | log2 fold change | -0.58 |
| coproporphyrin I |  |  | human, plasma | dose not given, control period |  | diurnal variation (Cmax-Cmean)/Cmean | 21.1 ± 2.2% |
| C-peptide |  | LC-MS/MS | pooled human serum, high level | 24 h, 4 °C, stability before sample preparation | reference: untreated control | bias | -0.6% |
| Teicoplanin |  | item: stability | human serum | 1 days, 2-6 °C, low QC |  | recovery | 97.7% |
| GUAUUAUUC (ssRNA) | U2AF2 148-342 (Homo sapiens, UniProt P26368) | sequencing of bound RNA | RNA | motif only |  | Kd | 4.43 µM |
| caspofungin |  |  | adult ICU patients, mITT, serum | dose not given, day 14 |  | aspartate aminotransferase | 29.8 U/L |
| KEAFWDRCLSVINLMSSKMLEINA | Cyclin-dependent kinase 5, with p25 (CDK5, Homo sapiens, UniProt Q00535) | phosphotransferase activity, radiometric | peptide | concentration not given, 10% DMSO, added: histone substrate | reference: p5-WT peptide | activity change | 60% |
| coproporphyrin III |  |  | human, serum | 20 mg ezetimibe, ezetimibe alone |  | Tmax | ≤ 120 min |

Excerpt of the above:
| Molecule | tested on | assay | system | setting | how to read | measurement | value |
| --- | --- | --- | --- | --- | --- | --- | --- |
| C-peptide |  | LC-MS/MS | pooled human serum, high level | 24 h, 4 °C, stability before sample preparation | reference: untreated control | bias | -0.6% |
| human CDK3 | CYB5R4 knockout human cells | PP4 interaction, 3xFLAG-PP4C IP-MS |  | concentration not given | reference: CYB5R4 KO over parental | log2 fold change | -0.76 |
